# Results gathered from unrelated publications.
# Compare with care: the assays were run in different laboratories. ± marks the error that the study gave.
# gyrB with GyrA: DNA gyrase subunit B, with GyrA (gyrB, Mycobacterium tuberculosis, UniProt P9WG45)
# Sequence of UniProt P9WG45 (whole entry, looked up): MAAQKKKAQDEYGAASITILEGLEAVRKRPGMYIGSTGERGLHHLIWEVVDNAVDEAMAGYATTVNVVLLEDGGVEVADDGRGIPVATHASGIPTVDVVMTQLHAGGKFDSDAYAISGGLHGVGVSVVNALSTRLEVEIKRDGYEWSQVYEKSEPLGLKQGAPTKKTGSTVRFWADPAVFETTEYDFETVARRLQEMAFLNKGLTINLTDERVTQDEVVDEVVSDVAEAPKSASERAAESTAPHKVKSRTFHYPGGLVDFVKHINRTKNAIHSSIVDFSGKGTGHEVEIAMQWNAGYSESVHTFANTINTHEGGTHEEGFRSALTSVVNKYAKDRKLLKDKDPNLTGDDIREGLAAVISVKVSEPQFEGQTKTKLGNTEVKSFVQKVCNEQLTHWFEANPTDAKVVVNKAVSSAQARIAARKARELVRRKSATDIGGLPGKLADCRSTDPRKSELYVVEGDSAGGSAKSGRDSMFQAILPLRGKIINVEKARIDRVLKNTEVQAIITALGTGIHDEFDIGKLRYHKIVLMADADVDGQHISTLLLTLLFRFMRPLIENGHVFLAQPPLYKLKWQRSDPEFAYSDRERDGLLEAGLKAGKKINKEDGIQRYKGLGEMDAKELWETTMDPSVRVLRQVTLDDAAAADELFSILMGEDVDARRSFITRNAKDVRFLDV
# Sequence of UniProt P35372 (whole entry, unmodified, looked up): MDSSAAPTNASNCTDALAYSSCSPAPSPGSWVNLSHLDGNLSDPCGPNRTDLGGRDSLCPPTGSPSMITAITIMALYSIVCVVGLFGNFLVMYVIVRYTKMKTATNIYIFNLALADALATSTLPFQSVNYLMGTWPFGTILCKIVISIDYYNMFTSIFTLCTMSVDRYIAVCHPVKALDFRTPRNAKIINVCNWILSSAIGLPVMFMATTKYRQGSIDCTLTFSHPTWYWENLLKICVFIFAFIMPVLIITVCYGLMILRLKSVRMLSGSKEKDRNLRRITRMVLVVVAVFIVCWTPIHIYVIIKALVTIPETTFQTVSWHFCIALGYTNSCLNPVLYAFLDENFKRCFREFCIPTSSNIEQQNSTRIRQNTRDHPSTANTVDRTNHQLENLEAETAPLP
# Sequence of UniProt P47870 (whole entry, looked up): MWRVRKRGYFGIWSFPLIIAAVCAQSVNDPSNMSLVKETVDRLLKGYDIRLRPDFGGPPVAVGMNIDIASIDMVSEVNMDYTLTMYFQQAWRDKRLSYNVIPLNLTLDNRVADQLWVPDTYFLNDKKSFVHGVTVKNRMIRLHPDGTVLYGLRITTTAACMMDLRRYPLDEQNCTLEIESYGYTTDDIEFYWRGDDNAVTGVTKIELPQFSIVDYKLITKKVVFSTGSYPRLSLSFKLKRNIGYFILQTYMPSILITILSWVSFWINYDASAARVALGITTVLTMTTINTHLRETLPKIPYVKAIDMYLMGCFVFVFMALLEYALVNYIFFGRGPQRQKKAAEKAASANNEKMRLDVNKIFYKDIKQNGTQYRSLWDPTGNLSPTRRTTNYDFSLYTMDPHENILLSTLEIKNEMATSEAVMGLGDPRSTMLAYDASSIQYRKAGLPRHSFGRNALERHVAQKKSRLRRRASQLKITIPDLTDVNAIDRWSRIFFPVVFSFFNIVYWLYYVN
# Sequence of UniProt P25929 (whole entry, looked up): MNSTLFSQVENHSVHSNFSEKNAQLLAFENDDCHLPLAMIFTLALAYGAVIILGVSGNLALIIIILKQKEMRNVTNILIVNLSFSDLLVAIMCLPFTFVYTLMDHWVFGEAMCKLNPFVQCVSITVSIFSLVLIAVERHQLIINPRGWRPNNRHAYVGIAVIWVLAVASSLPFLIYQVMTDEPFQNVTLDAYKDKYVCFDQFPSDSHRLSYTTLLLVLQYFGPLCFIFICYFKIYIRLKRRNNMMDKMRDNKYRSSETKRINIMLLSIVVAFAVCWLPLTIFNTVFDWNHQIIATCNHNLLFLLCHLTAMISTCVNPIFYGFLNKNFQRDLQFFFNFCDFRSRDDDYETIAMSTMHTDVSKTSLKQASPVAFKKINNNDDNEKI
# Sequence of UniProt P23458 (whole entry, looked up): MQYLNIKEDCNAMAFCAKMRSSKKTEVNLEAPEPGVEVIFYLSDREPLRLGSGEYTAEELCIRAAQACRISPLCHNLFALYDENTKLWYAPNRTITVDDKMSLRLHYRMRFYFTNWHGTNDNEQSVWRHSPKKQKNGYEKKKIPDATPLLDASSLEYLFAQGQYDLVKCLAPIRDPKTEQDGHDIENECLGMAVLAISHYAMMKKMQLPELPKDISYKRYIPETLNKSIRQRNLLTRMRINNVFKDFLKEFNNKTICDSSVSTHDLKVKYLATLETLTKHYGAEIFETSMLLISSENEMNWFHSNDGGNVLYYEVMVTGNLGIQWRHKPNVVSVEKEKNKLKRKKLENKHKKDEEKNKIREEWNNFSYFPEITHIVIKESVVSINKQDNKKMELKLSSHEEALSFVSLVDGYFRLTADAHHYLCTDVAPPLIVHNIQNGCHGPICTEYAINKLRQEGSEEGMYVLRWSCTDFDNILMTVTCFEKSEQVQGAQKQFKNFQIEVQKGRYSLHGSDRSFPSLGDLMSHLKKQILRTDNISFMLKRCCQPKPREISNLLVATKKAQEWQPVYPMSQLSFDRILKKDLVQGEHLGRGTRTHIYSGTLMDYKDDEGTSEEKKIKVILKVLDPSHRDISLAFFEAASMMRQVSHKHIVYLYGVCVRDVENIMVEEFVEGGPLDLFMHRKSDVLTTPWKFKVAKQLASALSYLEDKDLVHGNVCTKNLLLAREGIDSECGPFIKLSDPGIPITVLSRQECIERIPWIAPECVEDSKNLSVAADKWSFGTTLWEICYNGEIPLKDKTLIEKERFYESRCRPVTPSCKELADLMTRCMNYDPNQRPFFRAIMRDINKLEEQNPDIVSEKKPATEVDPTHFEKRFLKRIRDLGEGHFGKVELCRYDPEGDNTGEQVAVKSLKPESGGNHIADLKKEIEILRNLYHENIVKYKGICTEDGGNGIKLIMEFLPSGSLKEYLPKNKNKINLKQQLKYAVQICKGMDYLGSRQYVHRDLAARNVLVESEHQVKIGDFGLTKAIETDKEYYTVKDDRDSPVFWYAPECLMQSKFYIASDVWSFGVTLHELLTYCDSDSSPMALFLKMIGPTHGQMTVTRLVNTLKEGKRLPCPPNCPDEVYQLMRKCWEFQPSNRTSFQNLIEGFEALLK
# Sequence of UniProt O00311 (whole entry, looked up): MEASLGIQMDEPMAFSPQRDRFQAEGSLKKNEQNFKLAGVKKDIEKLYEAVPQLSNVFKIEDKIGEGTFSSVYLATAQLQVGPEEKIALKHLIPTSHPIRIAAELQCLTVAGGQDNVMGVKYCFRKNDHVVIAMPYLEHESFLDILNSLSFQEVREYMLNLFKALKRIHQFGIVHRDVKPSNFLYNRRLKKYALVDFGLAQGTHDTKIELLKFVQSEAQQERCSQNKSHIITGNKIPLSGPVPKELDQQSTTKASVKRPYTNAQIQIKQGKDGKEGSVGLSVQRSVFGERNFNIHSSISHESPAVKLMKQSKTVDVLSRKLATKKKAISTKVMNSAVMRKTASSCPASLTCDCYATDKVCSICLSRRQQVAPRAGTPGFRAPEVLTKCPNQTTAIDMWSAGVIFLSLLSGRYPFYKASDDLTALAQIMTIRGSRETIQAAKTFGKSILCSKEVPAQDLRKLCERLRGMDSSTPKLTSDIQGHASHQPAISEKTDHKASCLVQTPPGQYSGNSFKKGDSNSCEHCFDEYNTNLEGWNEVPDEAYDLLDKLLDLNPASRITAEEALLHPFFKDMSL
# Sequence of UniProt P14867 (whole entry, looked up): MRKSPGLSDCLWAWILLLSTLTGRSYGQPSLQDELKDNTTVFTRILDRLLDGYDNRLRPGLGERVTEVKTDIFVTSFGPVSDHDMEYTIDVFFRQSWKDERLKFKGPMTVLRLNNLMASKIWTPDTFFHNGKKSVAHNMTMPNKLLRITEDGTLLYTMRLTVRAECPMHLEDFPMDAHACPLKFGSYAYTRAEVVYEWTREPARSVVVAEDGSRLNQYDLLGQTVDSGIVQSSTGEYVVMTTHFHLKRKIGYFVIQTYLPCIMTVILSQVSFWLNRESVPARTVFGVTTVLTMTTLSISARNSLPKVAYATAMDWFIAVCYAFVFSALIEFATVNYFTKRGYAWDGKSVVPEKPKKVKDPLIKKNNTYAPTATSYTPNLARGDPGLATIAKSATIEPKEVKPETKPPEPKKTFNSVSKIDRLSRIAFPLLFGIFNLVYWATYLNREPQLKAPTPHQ
SMILES,target or system,test,system,setting,scale,endpoint,value
CC(C)(C)OC(=O)N1CCN(C(=O)CCc2c(C(=O)N3CCN(C(=O)OC(C)(C)C)CC3)[nH]c3cc(C(F)(F)F)c(Cl)cc23)CC1,gyrB with GyrA,inhibitor,,,,IC50,> 500 µM
Clc1ccccc1C1(c2ccnc(-c3ccccc3)n2)CCNCC1,Vero-E6,CellTiter-Glo ATP,,"concentration not given, 72 h, retest 8-point duplicates","baseline: DMSO 0%, hyamine -100%, more negative, more toxic",cytotoxicity efficacy,-16.4%
C[C@@H]1[C@@H](C)N/C(=C\[N+](=O)[O-])N1Cc1ccc(Cl)nc1,,radioligand binding,Musca domestica head membranes,with: [3H]imidacloprid,,Ki,0.00272 ± 0.00127 µM
C[C@H]1CN(c2n[nH]c3nc(N[C@H]4CC[C@H](NS(=O)(=O)CCC(F)(F)F)CC4)ncc23)CCO1,"Cell division cycle 7-related protein kinase (CDC7, Homo sapiens, UniProt O00311)",biochemical,,,,IC50,≥ 20 µM
CC[C@@H](c1cccc(O)c1)[C@@H](C)CN(C)C,"Mu-type opioid receptor (OPRM1, Homo sapiens, UniProt P35372, N40D)",agonist,human cells,"N40D receptor, receptor depletion by β-CNA",,EC50,2.51 µM
C[C@@]12CC[C@H](O)C[C@@H]1CC[C@H]1[C@H]2CC[C@@]2(C)C(=O)CC[C@H]12,"GABA-A receptor; GABA-A site (alpha1/beta2 interface) (Homo sapiens, UniProt P14867+P47870)",,,,,EC50,16.3 µM
COc1cc(Nc2ncc(F)c(Nc3ccc4c(n3)NC(=O)C(C)(C)O4)n2)cc(OC)c1OC,"Neuropeptide Y receptor type 1 (NPY1R, Homo sapiens, UniProt P25929)",,,,,IC50,> 10 µM
COc1ccc(N2C(=O)N(c3c(C)cccc3Cl)Cc3cnc(Nc4ccc(C5CCN(C)CC5)cc4OC)nc32)nc1,"Tyrosine-protein kinase JAK1 (JAK1, Homo sapiens, UniProt P23458)",kinase activity,,0.5 µM,,inhibition,-9%
CCOc1ccc(NC(=O)c2cnn(-c3ccc(C)c(Cl)c3)c2C2CCNCC2)cc1,Vero-E6,CellTiter-Glo ATP,,"concentration not given, 72 h, retest 8-point duplicates","baseline: DMSO 0%, hyamine -100%, more negative, more toxic",cytotoxicity efficacy,-11.4%
COc1cc2c(Oc3ccc4[nH]c(C)cc4c3F)ccnc2cc1OCC1(N)CC1,,,paediatric refractory sarcoma patients,8 mg,,Dizzy incidence,0%
COc1ccc(NC(=O)N2CCCCN3[C@H](CN(C)C)[C@H](c4ccc(C#Cc5ccccc5)cc4)[C@@H]3C2)cc1,Toxoplasma gondii,"tachyzoite growth, luciferase","ME49-Fluc, type II",,,EC50,0.05 µM
O=C(CCc1c(C(=O)N2CCCC2)[nH]c2ccc(Cl)cc12)N1CCCC1,gyrB with GyrA,inhibitor,,,,IC50,> 500 µM

# Excerpt of the above:
SMILES,target or system,test,system,setting,scale,endpoint,value
C[C@H]1CN(c2n[nH]c3nc(N[C@H]4CC[C@H](NS(=O)(=O)CCC(F)(F)F)CC4)ncc23)CCO1,"Cell division cycle 7-related protein kinase (CDC7, Homo sapiens, UniProt O00311)",biochemical,,,,IC50,≥ 20 µM
CC[C@@H](c1cccc(O)c1)[C@@H](C)CN(C)C,"Mu-type opioid receptor (OPRM1, Homo sapiens, UniProt P35372, N40D)",agonist,human cells,"N40D receptor, receptor depletion by β-CNA",,EC50,2.51 µM
